Assay results pooled from the literature.
Each line is one published result; not all experiments were run side by side. “And” joins repeats or separate records; there may be more than shown. Numbers after ± are the reported error.
Tumor necrosis factor receptor superfamily member 9/Nectin-4: Tumor necrosis factor receptor superfamily member 9/Nectin-4 (Homo sapiens, UniProt Q07011+Q96NY8)
Sequence of UniProt Q96NY8 (whole entry, looked up): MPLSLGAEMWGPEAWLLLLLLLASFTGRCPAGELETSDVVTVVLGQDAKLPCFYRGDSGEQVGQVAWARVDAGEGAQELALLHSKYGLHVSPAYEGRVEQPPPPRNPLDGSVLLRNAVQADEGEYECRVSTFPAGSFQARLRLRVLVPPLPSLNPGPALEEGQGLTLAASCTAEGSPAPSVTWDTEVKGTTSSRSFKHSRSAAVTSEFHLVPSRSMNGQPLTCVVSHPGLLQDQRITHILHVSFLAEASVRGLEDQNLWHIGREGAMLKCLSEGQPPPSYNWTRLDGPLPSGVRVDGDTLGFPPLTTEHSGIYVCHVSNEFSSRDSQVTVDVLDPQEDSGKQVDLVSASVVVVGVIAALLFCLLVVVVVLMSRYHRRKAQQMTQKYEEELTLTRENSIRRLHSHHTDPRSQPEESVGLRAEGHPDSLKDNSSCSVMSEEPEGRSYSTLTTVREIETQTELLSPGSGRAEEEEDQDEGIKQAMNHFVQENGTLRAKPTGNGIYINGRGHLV
Sequence of UniProt Q07011 (whole entry, looked up): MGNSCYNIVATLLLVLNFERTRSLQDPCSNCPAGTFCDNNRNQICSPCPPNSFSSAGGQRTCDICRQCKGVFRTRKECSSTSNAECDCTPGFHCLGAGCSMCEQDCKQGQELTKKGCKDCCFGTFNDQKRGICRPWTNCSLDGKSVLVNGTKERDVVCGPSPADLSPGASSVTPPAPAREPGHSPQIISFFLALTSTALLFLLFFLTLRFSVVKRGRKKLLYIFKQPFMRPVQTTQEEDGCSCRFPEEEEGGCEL
NR4A1: Nuclear receptor subfamily 4 group A member 1 (NR4A1, Homo sapiens, UniProt P22736)
Sequence of UniProt P22736 (whole entry, looked up): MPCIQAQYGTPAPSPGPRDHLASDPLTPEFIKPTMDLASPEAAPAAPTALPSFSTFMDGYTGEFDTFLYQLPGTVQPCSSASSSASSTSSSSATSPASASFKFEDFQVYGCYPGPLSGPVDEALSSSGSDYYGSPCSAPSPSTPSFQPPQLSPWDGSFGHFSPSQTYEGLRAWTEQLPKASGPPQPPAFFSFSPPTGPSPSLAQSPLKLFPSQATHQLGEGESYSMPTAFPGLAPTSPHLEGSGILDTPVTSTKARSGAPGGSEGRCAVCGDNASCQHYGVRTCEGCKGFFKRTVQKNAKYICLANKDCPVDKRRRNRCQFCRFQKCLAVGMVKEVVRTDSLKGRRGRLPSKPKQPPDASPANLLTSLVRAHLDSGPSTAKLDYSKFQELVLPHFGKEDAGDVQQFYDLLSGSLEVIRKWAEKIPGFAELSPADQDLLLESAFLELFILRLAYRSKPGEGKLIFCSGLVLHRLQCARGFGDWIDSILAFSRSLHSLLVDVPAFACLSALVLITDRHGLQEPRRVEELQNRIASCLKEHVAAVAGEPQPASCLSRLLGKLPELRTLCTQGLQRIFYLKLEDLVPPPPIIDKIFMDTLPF
T1: ssDNA, aptamer; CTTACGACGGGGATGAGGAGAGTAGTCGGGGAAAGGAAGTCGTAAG
Sequence of UniProt O75762 (whole entry, looked up): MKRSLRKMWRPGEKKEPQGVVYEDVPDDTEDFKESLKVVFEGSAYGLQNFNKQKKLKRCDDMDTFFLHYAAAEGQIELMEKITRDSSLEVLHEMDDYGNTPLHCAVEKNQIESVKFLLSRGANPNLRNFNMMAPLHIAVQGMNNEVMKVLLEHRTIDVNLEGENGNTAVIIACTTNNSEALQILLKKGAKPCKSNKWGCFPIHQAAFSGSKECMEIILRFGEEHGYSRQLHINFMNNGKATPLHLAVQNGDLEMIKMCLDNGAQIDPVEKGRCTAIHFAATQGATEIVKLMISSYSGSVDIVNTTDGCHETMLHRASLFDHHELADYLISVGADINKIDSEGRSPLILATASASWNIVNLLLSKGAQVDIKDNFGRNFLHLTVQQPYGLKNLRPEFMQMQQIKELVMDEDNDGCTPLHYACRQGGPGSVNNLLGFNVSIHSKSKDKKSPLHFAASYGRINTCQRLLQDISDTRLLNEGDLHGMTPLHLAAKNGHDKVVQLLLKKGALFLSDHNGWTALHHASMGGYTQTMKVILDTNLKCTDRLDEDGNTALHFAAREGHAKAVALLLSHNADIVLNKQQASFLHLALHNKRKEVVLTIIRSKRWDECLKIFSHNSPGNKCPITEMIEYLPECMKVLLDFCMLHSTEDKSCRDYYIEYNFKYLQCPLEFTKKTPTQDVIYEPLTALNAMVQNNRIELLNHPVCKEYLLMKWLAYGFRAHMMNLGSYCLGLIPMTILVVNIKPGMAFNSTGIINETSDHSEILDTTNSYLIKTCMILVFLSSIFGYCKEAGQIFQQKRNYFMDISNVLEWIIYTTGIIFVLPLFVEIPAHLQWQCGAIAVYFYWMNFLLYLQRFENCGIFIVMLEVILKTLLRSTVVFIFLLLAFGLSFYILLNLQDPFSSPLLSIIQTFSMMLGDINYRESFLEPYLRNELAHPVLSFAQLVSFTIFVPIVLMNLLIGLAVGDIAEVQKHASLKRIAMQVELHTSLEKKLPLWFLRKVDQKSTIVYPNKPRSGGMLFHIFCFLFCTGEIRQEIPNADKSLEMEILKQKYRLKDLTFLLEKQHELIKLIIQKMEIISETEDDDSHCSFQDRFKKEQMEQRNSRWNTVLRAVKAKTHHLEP
Sequence of UniProt P51575 (whole entry, unmodified, looked up): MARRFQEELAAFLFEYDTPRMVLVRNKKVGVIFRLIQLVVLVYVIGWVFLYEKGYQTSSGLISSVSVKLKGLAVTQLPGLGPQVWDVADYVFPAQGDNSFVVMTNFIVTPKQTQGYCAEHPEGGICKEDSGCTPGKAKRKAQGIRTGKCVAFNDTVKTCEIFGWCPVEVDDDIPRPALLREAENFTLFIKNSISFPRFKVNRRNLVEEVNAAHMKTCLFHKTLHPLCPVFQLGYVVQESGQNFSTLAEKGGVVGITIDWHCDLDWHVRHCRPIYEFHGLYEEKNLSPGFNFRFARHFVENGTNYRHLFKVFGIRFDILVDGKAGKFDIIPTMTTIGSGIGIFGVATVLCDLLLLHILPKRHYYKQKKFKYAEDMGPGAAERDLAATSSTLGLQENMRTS
Sequence of UniProt Q8NER1 (whole entry, unmodified, looked up): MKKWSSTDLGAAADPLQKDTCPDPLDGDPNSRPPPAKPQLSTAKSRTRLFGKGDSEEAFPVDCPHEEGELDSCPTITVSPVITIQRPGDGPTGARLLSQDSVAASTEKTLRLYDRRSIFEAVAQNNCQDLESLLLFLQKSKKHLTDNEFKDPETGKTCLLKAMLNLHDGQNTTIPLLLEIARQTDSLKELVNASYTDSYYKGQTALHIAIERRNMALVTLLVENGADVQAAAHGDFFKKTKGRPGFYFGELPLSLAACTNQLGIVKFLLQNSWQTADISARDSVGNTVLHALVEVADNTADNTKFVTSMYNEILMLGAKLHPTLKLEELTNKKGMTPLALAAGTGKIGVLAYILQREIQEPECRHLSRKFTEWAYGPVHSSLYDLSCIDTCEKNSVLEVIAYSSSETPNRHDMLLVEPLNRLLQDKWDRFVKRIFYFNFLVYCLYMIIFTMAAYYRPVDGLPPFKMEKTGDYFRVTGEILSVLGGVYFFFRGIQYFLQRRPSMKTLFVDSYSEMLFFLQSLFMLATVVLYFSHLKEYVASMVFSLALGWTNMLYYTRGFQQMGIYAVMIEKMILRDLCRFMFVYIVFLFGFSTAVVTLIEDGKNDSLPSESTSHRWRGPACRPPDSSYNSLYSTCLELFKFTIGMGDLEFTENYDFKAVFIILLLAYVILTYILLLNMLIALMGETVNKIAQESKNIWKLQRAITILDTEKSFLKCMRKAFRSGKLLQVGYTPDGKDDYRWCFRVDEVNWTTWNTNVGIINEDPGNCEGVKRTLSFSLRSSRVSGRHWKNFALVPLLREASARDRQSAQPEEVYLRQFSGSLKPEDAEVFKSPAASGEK
Sequence of UniProt Q16774 (whole entry, looked up): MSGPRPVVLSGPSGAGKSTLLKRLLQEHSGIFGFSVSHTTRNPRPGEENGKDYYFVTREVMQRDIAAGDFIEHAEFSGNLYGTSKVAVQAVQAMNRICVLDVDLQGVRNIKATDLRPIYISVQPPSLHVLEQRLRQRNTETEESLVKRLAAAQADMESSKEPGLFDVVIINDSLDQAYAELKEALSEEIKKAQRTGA
Sequence of UniProt Q9UH17 (whole entry, looked up): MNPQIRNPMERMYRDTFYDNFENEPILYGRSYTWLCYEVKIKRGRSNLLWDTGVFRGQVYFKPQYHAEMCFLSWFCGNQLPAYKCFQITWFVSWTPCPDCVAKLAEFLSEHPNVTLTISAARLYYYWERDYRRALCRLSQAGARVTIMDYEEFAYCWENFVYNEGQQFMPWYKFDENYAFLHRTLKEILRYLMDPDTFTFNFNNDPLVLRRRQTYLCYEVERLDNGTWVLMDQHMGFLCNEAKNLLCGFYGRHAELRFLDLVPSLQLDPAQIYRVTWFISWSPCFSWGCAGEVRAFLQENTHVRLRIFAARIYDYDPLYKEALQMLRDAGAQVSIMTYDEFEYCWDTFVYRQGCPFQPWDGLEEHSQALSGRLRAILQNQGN
Sequence of UniProt Q03181 (whole entry, looked up): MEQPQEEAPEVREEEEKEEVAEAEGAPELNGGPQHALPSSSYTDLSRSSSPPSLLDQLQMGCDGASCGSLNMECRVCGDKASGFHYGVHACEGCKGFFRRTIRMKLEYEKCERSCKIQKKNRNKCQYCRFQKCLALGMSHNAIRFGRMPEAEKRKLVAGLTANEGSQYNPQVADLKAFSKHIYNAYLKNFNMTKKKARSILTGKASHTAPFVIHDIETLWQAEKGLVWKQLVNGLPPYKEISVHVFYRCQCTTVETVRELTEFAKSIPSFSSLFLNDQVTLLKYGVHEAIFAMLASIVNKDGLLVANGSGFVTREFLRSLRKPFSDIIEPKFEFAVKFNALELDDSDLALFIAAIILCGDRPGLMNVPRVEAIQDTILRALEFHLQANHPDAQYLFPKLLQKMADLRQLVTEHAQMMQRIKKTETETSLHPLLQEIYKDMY
Sequence of UniProt P00441 (whole entry, unmodified, looked up): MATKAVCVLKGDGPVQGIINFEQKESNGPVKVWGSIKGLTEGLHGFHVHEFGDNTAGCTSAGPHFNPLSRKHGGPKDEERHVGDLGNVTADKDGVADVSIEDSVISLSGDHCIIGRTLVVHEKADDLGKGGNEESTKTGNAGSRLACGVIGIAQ

| SMILES | target | test | system | conditions | scale | measurement | value |
| --- | --- | --- | --- | --- | --- | --- | --- |
| [H]/N=C(/N)NCC(=O)O | Sodium- and chloride-dependent taurine transporter (SLC6A6, Homo sapiens, UniProt P31641, G62A) | binding, microscale thermophoresis | – | 244 nM, room temperature, with: 50 nM labelled protein | higher = more binding | normalised MST signal | 0.0224 |
| CC(=O)N[C@H](C(=O)N1C[C@H](O)C[C@H]1C(=O)NCc1ccc(-c2scnc2C)cc1)C(C)(C)SCCCCCCNC(=O)C[C@@H]1N=C(c2ccc(Cl)cc2)c2c(sc(C)c2C)-n2c(C)nnc21 | Bromodomain-containing protein 2, BD1 (BRD2, Homo sapiens, UniProt P25440) | ITC | – | concentration not given, 25 °C, compound in cell, protein in syringe | – | binding stoichiometry | 0.858 ± 0.004 |
| CCNc1ccc([N+](=O)[O-])cc1-n1cnc(-c2ccc([N+](=O)[O-])cc2)c1 | Toll-like receptor 1/2 (Homo sapiens, UniProt O60603+Q15399) | reporter gene, agonist | HEK-Blue hTLR2 | concentration not given | – | maximal activation | ≥ 50% |
| CCOc1ccc(N(C)S(=O)(=O)c2cc(Cl)sc2C(=O)Nc2cc(Cl)cc(C(=O)O)c2)cc1OC | Peroxisome proliferator-activated receptor delta (PPARD, Homo sapiens, UniProt Q03181) | – | – | concentration not given | – | activity | inactive |
| CCCC[C@@H]1NC(=O)[C@H](Cc2ccc(O)cc2)NC(=O)[C@@H]2CCCN2C(=O)[C@H](CC(=O)O)NC(=O)[C@H](C)NC(=O)[C@H](Cc2ccccc2)NC(=O)[C@@H]2CSCCC(=O)N3CN(CN(C3)C(=O)CCSC[C@H](NC(C)=O)C(=O)N[C@@H](CC(C)(C)C)C(=O)N[C@@H](CCC(=O)O)C(=O)N[C@@H](CCC(=O)O)C(=O)N[C@H](CCCCNC(=O)CCc3cn(CCOCCOCCOCCN(CCOCCOCCOCCC(=O)N[C@H]4CSCCC(=O)N5CN6CN(C5)C(=O)CCSC[C@H](NC(=O)[C@@H](CC(=O)O)NC(=O)[C@H](Cc5cccc7ccccc57)NC(=O)[C@@H]5CCCN5C4=O)C(=O)N[C@@H](CCSC)C(=O)N[C@@H](CCCCNC(=N)N)C(=O)N[C@@H](CC(=O)O)C(=O)N[C@@H](Cc4c[nH]c5ccccc45)C(=O)N[C@@H](CO)C(=O)N[C@@H]([C@@H](C)O)C(=O)N4CCC[C@H]4C(=O)N4C[C@H](O)C[C@H]4C(=O)N[C@@H](Cc4c[nH]c5ccccc45)C(=O)N[C@H](C(N)=O)CSCCC6=O)CCOCCOCCOCCn4cc(CCC(=O)NCCCC[C@H]5NC(=O)[C@H](CCC(=O)O)NC(=O)[C@H](CCC(=O)O)NC(=O)[C@H](CC(C)(C)C)NC(=O)[C@@H](NC(C)=O)CSCCC(=O)N6CN7CN(C6)C(=O)CCSC[C@H](NC(=O)[C@H](Cc6ccc(O)cc6)NC(=O)[C@@H]6CCCN6C5=O)C(=O)N[C@@H](Cc5ccccc5)C(=O)N[C@@H](C)C(=O)N[C@@H](CC(=O)O)C(=O)N5CCC[C@H]5C(=O)N[C@@H](Cc5ccc(O)cc5)C(=O)N[C@@H](CCCC)C(=O)N[C@H](C(N)=O)CSCCC7=O)nn4)nn3)C(=O)N3CCC[C@H]3C(=O)N[C@@H](Cc3ccc(O)cc3)C(=O)N2)C(=O)CCSC[C@@H](C(N)=O)NC1=O | Tumor necrosis factor receptor superfamily member 9/Nectin-4 | reporter gene, agonist | HT-1376 coculture with reporter cells | – | relative to: background | Emax | 63 fold |
| CCCCCCCC(=O)c1c(O)cc(O)cc1CC(=O)OCC | NR4A1 | reporter gene, NBRE reporter full-length | – | 10 µM | relative to: vehicle | activation | 0.91 fold |
| Cc1cccc(NC(=O)Cn2cc(CO)c3ccccc32)c1 | Sodium channel protein type 8 subunit alpha, C-terminal domain (SCN8A, Homo sapiens, UniProt Q9UQD0) | binder, SPR | – | – | – | kon | 3530 ± 74 M⁻¹ s⁻¹ |
| C[C@@H](c1ccc(-n2cnc3c(N)ncnc32)cc1)N1CCc2nn(C)c(Cc3ccccc3)c2C1=O | Non-receptor tyrosine-protein kinase TYK2, JH1 domain (TYK2, Homo sapiens, UniProt P29597) | KINOMEscan | – | 0.1 µM | relative to: DMSO control | remaining binding | 98% |
| Cc1ccnc(OC[C@H]2CN(CC(=O)N3CCc4ccccc43)CCO2)c1 | 5-hydroxytryptamine receptor 5A (HTR5A, Homo sapiens, UniProt P47898) | radioligand binding | – | concentration not given, with: [3H]LSD | – | inhibition | -29% |
| [O-][S+]1CCCCS1 (stereo not drawn) | Superoxide dismutase [Cu-Zn] (SOD1, Homo sapiens, UniProt P00441, G94A) | LC-MS | human whole blood | 1000 µM, 1 h, 37 °C | – | SOD1 dimer fraction | 77.3% |
| N#Cc1ccc2c(-c3ccncc3)c(-c3ccc(F)cc3)nn2c1 | Mitogen-activated protein kinase HOG1 (HOG1, Candida albicans, UniProt Q92207) | MIB/MS competition binding | Candida albicans cell lysate | 1 µM | relative to: DMSO, lower = stronger binding | log2 fold change | -0.671 |
| COc1cc(CNC(=O)CCCC/C=C/C(C)C)ccc1O | Transient receptor potential cation channel subfamily V member 1 (TRPV1, Homo sapiens, UniProt Q8NER1) | channel activation, FLIPR calcium | HEK293T | 6.67 µM | higher = more activation | calcium response | 38.5 a.u. and 32.7 a.u. and 30.6 a.u. and 36.6 a.u. |
| Nc1nc2c(ncn2[C@@H]2O[C@H](COP(=O)(O)O)[C@@H](O)[C@H]2O)c(=O)[nH]1 | GUK1 (Homo sapiens, UniProt Q16774) | enzyme activity, NADH-coupled | – | 15.62 µM, with: KCl 10 mM | – | reaction velocity | 0.00988 µM/s and 0.0222 µM/s and 0.0317 µM/s |
| Nc1ncnc2c1ncn2[C@@H]1O[C@H](COP(=O)(O)CP(=O)(O)OP(=O)(O)O)[C@@H](O)[C@H]1O | P2X purinoceptor 1 (P2RX1, Homo sapiens, UniProt P51575, M214A) | saturation binding | HEK293 | 103 nM | – | specific binding | 1390 CCPM and 1450 CCPM and 2710 CCPM |
| CC(C)C(=O)Nc1n[nH]c2cc(-c3cccc(NS(=O)(=O)C4CC4)c3)ccc12 | Phosphatidylinositol 4-phosphate 5-kinase type-1 gamma (PIP5K1C, Homo sapiens, UniProt O60331) | ADP-Glo | – | 123 nM, with: 10 µM ATP | – | ADP produced | 2.79 µM |
| Oc1ccccc1-c1n[nH]cc1-c1ccnc2ccccc12 | Mitosis inhibitor protein kinase SWE1 (SWE1, Candida albicans, UniProt Q5AP97) | kinase binding, MIB/MS competition | Candida albicans lysate | 10 µM | relative to: DMSO, negative = stronger binding | log2 fold change | 0.01 |
| COc1cc(CNC(=O)CCCC/C=C/C(C)C)ccc1O | Transient receptor potential cation channel subfamily V member 1 (TRPV1, Homo sapiens, UniProt Q8NER1, F496Q) | agonist, outside-out patch clamp | – | F496Q mutant | – | Hill coefficient | 1.3 |
| O=C(NC1CCC1)c1ccc2nc(-c3cccc(NS(=O)(=O)NCCN4CCCCC4)c3)cn2c1 | Rho-associated protein kinase 2 (ROCK2, Homo sapiens, UniProt O75116) | enzyme activity | – | 10 µM | – | remaining activity | 98% |

| SMILES | target | test | system | conditions | scale | measurement | value |
| --- | --- | --- | --- | --- | --- | --- | --- |
| Nc1ncnc2c1ncn2[C@@H]1O[C@H](COP(=O)(O)OP(=O)(O)OP(=O)(O)O)[C@@H](O)[C@H]1O | DNA-directed RNA polymerase subunit beta' / DNA-directed RNA polymerase subunit beta (rpoC/rpoB, Escherichia coli, UniProt P0A8T7+P0A8V2) | RNA extension, rapid quench-flow | Escherichia coli, elongation complex, 6-MI template | 200 µM, 25 °C, slow complex fraction | – | nucleotide addition rate | 2.6 ± 1.2 s⁻¹ |
| CC1CCCN(C(=O)c2cc3ncccn3n2)C1 (stereo not drawn) | FBXW7 (Homo sapiens, UniProt Q969H0) | binding, affinity selection mass spectrometry | – | – | relative to: other proteins in batch | fold enrichment | 1.23 |
| C=CC(=O)N1CCC(COCC(=O)N2CCN(c3nc(-c4cnc(N)nc4C(F)F)nc(N4CCOC[C@@H]4C)n3)CC2)CC1 | Myotonin-protein kinase (DMPK, Homo sapiens, UniProt Q09013) | KINOMEscan | – | 1 µM | – | remaining binding | 98% |
| COc1ccc(Cc2nnc(NS(=O)(=O)c3ccc(Cl)cc3Cl)s2)cc1 | Glutathione hydrolase 1 proenzyme, without transmembrane domain (Homo sapiens, UniProt P19440) | GSH hydrolysis, uncompetitive inhibitor | – | 37 °C, binds gamma-glutamyl enzyme, with: GSH 5-20 µM | – | Kii | 950 ± 242 µM |
| CCC1(O)CCCN(C(=O)c2ccc(-c3ccc(F)c(NC(=O)CCl)c3)cc2)C1 (stereo not drawn) | DNA dC->dU-editing enzyme APOBEC-3B, C-terminal domain (Homo sapiens, UniProt Q9UH17) | covalent adduct, intact protein MS | – | 1 h, 1-fold, 25 µM | – | unmodified protein | 88% and 89% |
| Nc1ncnc2c1ncn2[C@@H]1O[C@H](COP(=O)(O)OP(=O)(O)O)[C@@H](O)[C@H]1O | T1, ssDNA, aptamer | ITC | – | – | – | Kd | 18.3 µM |
| CC1=C(/C=C/C(C)=C/C=C/C(C)=C/C=O)C(C)(C)CCC1 | Rhodopsin (RHO, Bos taurus, UniProt P02699, G270A) | retinal release, Trp FRET | lipid bicelles | 28 °C, G270A mutant | relative to: wild-type rhodopsin | relative koff | 1.83 ± 0.14 |
| NC(=O)CC[C@H](N)C(=O)O | Uncharacterized protein (Pelagibacter ubique, UniProt Q4FMW4) | isothermal titration calorimetry | Candidatus Pelagibacter ubique | concentration not given | – | binding | no binding |
| NS(=O)(=O)c1ccc(Nc2nc(-c3ccc(F)cc3)c3ccccc3n2)cc1 | Protein polybromo-1, bromodomain 5 (PBRM1, Homo sapiens, UniProt Q86U86) | bromodomain binding, BROMOscan | – | 1000 nM | relative to: DMSO control | remaining binding | 75% |
| O=C(O)c1ccc(Nc2ncc3c(n2)-c2ccc(Cl)cc2C(c2c(F)cccc2F)=NC3)cc1 | MELK(h) | kinase activity | – | 1 µM | – | remaining activity | 79% |
| CCN1CCN(c2cc(N3CCN(CC)CC3)nc(NCCNc3ccnc4cc(Cl)ccc34)n2)CC1 | NR4A1 | reporter gene, Gal4 hybrid reporter | – | 1 µM | relative to: vehicle | activation | 0.95 ± 0.21 fold |
| Nc1ncnc2c1ncn2[C@@H]1O[C@H](COP(=O)(O)OP(=O)(O)OP(=O)(O)O)[C@@H](O)[C@H]1O | P2X purinoceptor 2 (P2RX2, Homo sapiens, UniProt Q9UBL9) | ion current, agonist, two-electrode voltage clamp | Xenopus oocytes | concentration-response curve | – | Hill slope | 1.56 |
| C[C@H]1O[C@@H](O[C@H]2CC[C@@]3(C)[C@@H](CC[C@]4(C)[C@@H]3C=CC3=C5CC(C)(C)CC[C@]5(CO)[C@@H](O)C[C@]34C)[C@]2(C)CO)[C@H](O)[C@@H](O[C@@H]2O[C@H](CO)[C@@H](O)[C@H](O)[C@H]2O)[C@H]1O | NAD-dependent protein deacetylase sirtuin-1 (SIRT1, Homo sapiens, UniProt Q96EB6) | binding, microscale thermophoresis | – | 161 nM | – | MST normalised fluorescence | 884 a.u. |
| O=c1nc(SCc2cc(F)cc(C(F)(F)F)c2)nc(SCc2ccc3sccc3c2)[nH]1 | DNA topoisomerase 2-alpha (TOP2A, Homo sapiens, UniProt P11388) | ATPase activity | – | 15.6 µM, with: ATP 0.05 mM | – | ATP hydrolysis rate | 0.633 µM/min and 0.405 µM/min |
| CCCC[C@@H]1NC(=O)[C@H](Cc2ccc(O)cc2)NC(=O)[C@@H]2CCCN2C(=O)[C@H](CC(=O)O)NC(=O)[C@H](C)NC(=O)[C@H](Cc2ccccc2)NC(=O)[C@@H]2CSCCC(=O)N3CN(CN(C3)C(=O)CCSC[C@H](NC(C)=O)C(=O)N[C@@H](CC(C)(C)C)C(=O)N3CCC[C@H]3C(=O)N[C@@H](CCC(=O)O)C(=O)N[C@H](CCCCNC(=O)CCc3cn(CCOCCOCCOCCOCCOCCC(=O)N[C@H]4CSCCC(=O)N5CN6CN(C5)C(=O)CCSC[C@H](NC(=O)[C@@H](CC(=O)O)NC(=O)[C@H](Cc5cccc7ccccc57)NC(=O)[C@@H]5CCCN5C4=O)C(=O)N[C@@H](CCSC)C(=O)N[C@@H](CCCCNC(=N)N)C(=O)N[C@@H](CC(=O)O)C(=O)N[C@@H](Cc4c[nH]c5ccccc45)C(=O)N[C@@H](CO)C(=O)N[C@@H]([C@@H](C)O)C(=O)N4CCC[C@H]4C(=O)N4C[C@H](O)C[C@H]4C(=O)N[C@@H](Cc4c[nH]c5ccccc45)C(=O)N[C@H](C(N)=O)CSCCC6=O)nn3)C(=O)N3CCC[C@H]3C(=O)N[C@@H](Cc3ccc(O)cc3)C(=O)N2)C(=O)CCSC[C@@H](C(N)=O)NC1=O | Tumor necrosis factor receptor superfamily member 9/Nectin-4 | reporter gene, agonist | HT-1376 coculture with reporter cells | – | relative to: background | Emax | 45 fold |
| O=C1CCC(N2Cc3cc(NC(=O)c4cccc(C(F)(F)F)c4)ccc3C2=O)C(=O)N1 (stereo not drawn) | Cereblon/Casein kinase I alpha (CSNK1A1/CRBN, Homo sapiens, UniProt P48729+Q96SW2) | degrader, live-cell HiBiT kinetic | HEK293 LgBiT | 10 µM | – | degradation rate constant | 1.65 h⁻¹ |
| [Ca] | Transient receptor potential cation channel subfamily A member 1 (TRPA1, Homo sapiens, UniProt O75762) | ion current, two-electrode voltage clamp | Xenopus oocytes | concentration not given, -80 mV, with: extracellular Ca2+ | relative to: current before Ca2+ addition | potentiation | 22.9 fold change and 2.57 fold change and 7.02 fold change and 0.645 fold change and 27.5 fold change |
| NC/C(=C\F)COc1cccc(Cn2c(=S)[nH]c(=O)c3[nH]cnc32)c1 | Myeloperoxidase (MPO, Homo sapiens, UniProt P05164) | H2O2 consumption, inhibitor, H2O2 electrode | – | 0.25 µM, 0.1 s | – | H2O2 concentration | -0.997 µM |
